Assay results of several laboratories.
Compare with care: the assays were run in different laboratories. ± gives the spread as reported.

COc1cccc(C(=O)Nc2ccc(S(N)(=O)=O)c(OC)c2)c1
IC50 (HEK293; cell viability, MTT; 48 h): > 100 µM

Cc1ccc(C)c(COc2cc(NC(=O)c3ccc(Cl)c(Cl)c3)ccc2NC(=N)N)c1
IC50 (HEK293; cell growth, MTT; 48 h): > 500 µM

COc1cc(NC(=O)c2ccco2)ccc1S(N)(=O)=O
IC50 (HEK293; cell viability, MTT; 48 h): > 100 µM

O=c1[nH]c(CCl)nc2scc(-c3ccc(F)cc3)c12
EC50 (HEK293; cell viability, resazurin; 24 h): 3.9 ± 0.4 µM

CC(C)C[C@@H](C=O)NC(=O)[C@H](CC(C)C)NC(=O)[C@H](CC(C)C)NC(=O)OCc1ccccc1
FLuc activity (HEK293; refers to: CD4 signal peptide-FLuc reporter; concentration not given, 5 h, time-course chase, unit not given, added: cycloheximide; reference: untreated): 1.37

O=C(NCCCNS(=O)(=O)c1ccc(OC(F)(F)F)cc1)C1=Cc2ccccc2S1(=O)=O
protein level (HEK293; immunoblotting, refers to: REST protein; 10 µM, 2 days, daily replenishment; reference: DMSO): ~5%

O=c1[nH]c(CCl)nc2scc(-c3ccccc3)c12
EC50 (HEK293; cell viability, resazurin; 24 h): 4.9 ± 0.6 µM

O=c1ccn([C@@H]2O[C@H](CO)[C@@H](O)[C@H]2O)c(=O)[nH]1
z-scored log2 fold change (binding, equilibrium dialysis LC-MS; 5 µM, thermostabilized A2AR-BRIL construct; reference: no-protein control, direction not given): 0.146

O=c1[nH]c(CCl)nc2scc(-c3ccccc3F)c12
EC50 (HEK293; cell viability, resazurin; 24 h): 5 ± 0.6 µM

O=c1ccn([C@@H]2O[C@H](COP(=O)(O)O)[C@@H](O)[C@H]2O)c(=O)[nH]1
z-scored log2 fold change (binding, equilibrium dialysis LC-MS; 5 µM, thermostabilized A2AR-BRIL construct; reference: no-protein control, direction not given): 0.256

CCN(CCO)CCCC(C)Nc1ccnc2cc(Cl)ccc12 (centres unmarked)
secreted Gaussia luciferase (HEK293; protein secretion; concentration not given, unit not given; reference: mock): 0.324

A few entries again:
O=c1[nH]c(CCl)nc2scc(-c3ccccc3)c12
EC50 (HEK293; cell viability, resazurin; 24 h): 4.9 ± 0.6 µM
